Published values pooled from the literature.
Protocols differ between the studies behind these lines. Numbers after ± are the reported error.
ALB: Albumin (ALB, Bos taurus, UniProt P02769)
Sequence of UniProt P02769 (whole entry, looked up): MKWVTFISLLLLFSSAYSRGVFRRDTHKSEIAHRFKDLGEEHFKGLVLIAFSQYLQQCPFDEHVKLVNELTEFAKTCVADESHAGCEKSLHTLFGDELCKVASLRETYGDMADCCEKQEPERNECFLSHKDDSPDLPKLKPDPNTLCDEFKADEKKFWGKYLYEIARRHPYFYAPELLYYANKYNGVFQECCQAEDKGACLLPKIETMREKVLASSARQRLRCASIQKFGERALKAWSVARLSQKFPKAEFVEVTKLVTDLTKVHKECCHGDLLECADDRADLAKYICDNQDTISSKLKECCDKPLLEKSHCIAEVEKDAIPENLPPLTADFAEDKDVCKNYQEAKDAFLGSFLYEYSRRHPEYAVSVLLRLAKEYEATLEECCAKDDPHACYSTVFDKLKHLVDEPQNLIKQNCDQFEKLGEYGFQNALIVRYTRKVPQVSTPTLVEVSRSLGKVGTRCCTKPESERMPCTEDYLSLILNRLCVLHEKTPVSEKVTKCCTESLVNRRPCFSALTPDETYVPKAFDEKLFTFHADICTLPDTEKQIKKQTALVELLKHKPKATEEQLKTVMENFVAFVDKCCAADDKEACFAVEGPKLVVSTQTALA
gdpP residues 84-659: gdpP, residues 84-659 (Bacillus subtilis, UniProt P37484)
Sequence of UniProt P37484 (84-659, looked up): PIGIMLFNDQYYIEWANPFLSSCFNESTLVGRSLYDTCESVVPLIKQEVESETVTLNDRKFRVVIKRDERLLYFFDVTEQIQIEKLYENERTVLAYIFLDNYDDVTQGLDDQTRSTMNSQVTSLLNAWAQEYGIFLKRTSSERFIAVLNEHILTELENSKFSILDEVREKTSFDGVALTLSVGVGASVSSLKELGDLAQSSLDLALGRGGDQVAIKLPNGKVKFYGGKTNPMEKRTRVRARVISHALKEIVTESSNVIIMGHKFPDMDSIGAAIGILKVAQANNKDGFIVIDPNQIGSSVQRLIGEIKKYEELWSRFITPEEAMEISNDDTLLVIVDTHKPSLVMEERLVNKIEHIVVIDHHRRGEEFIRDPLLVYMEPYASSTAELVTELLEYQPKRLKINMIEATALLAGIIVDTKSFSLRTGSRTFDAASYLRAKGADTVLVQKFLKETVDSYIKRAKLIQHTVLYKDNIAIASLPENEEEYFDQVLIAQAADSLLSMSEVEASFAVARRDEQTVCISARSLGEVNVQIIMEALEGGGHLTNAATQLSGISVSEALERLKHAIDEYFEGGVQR
RMS3: RMS3 (Lathyrus oleraceus, UniProt A0A109QYD3)
Sequence of UniProt A0A109QYD3 (whole entry, looked up): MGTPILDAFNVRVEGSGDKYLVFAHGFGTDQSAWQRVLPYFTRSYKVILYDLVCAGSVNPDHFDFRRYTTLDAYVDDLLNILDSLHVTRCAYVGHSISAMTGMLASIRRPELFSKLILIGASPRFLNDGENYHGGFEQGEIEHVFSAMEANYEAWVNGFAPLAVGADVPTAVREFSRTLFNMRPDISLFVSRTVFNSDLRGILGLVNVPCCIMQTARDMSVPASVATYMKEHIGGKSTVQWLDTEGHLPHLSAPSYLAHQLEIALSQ
Sequence of UniProt P10636 (whole entry, unmodified, looked up): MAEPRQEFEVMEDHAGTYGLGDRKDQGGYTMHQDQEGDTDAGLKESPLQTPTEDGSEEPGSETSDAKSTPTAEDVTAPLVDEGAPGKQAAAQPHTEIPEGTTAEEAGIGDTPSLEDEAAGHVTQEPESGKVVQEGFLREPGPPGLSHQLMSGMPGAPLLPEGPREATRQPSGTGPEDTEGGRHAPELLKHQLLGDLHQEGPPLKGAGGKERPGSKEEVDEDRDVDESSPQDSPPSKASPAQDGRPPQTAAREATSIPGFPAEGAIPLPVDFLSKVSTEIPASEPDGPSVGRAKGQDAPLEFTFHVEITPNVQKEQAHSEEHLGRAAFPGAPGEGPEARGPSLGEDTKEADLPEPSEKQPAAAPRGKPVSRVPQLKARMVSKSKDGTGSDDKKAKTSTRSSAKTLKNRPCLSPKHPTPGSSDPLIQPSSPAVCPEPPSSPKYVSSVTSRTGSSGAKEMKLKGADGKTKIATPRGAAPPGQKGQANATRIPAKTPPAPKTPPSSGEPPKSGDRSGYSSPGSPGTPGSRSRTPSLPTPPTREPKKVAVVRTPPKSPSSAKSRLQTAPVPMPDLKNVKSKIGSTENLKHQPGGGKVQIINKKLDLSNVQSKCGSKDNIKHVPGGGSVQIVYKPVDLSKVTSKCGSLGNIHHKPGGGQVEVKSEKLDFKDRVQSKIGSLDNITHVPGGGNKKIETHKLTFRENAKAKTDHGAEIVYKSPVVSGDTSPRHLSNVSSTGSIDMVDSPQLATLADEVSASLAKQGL
Sequence of UniProt P33534 (whole entry, looked up): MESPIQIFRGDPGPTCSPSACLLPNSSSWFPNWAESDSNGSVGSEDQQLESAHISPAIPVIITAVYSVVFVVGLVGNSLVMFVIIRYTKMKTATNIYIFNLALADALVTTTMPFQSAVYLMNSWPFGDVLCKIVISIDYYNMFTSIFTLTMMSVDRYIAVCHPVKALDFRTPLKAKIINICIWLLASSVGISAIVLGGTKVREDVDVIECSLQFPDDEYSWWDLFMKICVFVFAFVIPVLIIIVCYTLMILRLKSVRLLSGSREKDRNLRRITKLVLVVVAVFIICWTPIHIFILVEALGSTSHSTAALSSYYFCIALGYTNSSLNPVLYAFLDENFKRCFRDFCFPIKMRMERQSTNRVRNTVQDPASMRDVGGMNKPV
Sequence of UniProt P00691 (whole entry, unmodified, looked up): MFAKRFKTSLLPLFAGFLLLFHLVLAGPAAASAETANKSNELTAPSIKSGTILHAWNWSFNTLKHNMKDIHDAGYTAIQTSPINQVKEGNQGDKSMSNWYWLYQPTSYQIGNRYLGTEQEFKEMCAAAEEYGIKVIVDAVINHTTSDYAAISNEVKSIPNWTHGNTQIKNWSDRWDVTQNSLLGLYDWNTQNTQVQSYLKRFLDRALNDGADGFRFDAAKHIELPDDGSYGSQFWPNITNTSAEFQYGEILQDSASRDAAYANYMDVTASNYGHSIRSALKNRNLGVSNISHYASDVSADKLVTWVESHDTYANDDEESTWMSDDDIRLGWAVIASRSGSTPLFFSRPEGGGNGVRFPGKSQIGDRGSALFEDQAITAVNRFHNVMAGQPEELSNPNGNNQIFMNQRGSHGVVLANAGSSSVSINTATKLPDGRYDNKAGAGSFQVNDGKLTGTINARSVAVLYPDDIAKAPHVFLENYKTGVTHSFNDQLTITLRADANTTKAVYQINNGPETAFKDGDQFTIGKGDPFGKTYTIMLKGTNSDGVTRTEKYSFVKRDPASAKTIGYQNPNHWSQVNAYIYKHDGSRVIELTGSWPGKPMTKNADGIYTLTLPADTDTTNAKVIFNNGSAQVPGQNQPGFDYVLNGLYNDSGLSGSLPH
Sequence of UniProt Q9Y5Y6 (whole entry, looked up): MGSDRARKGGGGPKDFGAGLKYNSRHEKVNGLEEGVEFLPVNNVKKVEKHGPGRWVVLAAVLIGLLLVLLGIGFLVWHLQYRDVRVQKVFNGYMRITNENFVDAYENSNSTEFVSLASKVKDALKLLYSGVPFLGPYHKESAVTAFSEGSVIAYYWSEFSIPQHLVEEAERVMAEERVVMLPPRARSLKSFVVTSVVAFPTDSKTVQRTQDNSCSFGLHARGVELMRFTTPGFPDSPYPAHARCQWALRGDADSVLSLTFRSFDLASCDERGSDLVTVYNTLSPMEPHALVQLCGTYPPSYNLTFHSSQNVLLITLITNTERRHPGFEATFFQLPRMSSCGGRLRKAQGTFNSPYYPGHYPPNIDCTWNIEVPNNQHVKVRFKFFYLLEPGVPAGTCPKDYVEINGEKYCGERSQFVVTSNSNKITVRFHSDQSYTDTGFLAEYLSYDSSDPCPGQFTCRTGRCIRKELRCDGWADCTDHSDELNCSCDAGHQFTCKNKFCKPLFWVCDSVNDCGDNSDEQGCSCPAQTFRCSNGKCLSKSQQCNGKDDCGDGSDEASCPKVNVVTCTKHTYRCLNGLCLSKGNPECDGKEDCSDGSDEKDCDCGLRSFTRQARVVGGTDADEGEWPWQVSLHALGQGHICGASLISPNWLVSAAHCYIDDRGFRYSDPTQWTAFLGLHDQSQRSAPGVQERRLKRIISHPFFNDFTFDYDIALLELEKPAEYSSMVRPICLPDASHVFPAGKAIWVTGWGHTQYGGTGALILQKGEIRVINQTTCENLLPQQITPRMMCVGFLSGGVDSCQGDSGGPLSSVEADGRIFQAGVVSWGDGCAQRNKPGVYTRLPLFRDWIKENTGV
Sequence of UniProt P21564 (whole entry, unmodified, looked up): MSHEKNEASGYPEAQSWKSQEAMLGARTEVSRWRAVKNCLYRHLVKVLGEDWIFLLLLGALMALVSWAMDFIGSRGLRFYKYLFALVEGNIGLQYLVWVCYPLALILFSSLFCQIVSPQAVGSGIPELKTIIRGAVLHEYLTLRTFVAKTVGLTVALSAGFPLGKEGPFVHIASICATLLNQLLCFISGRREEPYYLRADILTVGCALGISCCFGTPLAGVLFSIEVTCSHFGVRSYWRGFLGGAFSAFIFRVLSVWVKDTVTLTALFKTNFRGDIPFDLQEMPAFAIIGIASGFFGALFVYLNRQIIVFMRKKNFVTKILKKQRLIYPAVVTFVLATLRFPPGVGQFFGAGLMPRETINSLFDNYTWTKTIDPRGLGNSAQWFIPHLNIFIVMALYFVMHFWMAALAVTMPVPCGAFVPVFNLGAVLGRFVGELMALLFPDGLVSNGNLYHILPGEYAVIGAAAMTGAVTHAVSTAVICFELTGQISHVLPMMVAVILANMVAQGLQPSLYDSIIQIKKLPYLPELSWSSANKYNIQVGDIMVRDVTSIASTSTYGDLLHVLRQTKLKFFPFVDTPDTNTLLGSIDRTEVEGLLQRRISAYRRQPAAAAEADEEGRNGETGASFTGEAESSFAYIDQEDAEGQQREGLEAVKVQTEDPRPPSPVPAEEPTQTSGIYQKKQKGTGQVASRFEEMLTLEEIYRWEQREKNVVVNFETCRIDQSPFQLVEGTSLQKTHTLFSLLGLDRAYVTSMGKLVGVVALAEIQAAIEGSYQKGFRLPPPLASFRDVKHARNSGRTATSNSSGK

C#CC[C@H](NC(=O)CNC(=O)[C@H](CO)NC(=O)[C@@H]1CCCCNC(=O)CCCC(=O)N[C@@H](CCSC)C(=O)N[C@@H](Cc2c[nH]c3ccccc23)C(=O)N2CCC[C@H]2C(=O)N[C@@H](Cc2c[nH]cn2)C(=O)N[C@@H](CCCNC(=N)N)C(=O)N[C@@H](C(C)C)C(=O)N[C@@H]([C@@H](C)O)C(=O)N[C@@H](C)C(=O)N(C)[C@@H](C)C(=O)N1)C(=O)O  binding (ubiquitin; radiolabelled pull-down; concentration not given, 60 min, room temperature): no binding
Nc1nc2ncc(CNc3ccc(C(=O)N[C@@H](CCC(=O)NCCOCCOCCNC(=O)CN4CCN5CCN(CC4)CC(=O)[O][Al]([18F])[O]C(=O)C5)C(=O)O)cc3)nc2c(=O)[nH]1  Bmax ratio (FOLR1 (Homo sapiens, UniProt P15328); radioligand saturation binding; xenograft homogenates; baseline: KB over CAL-51 xenografts): 14 fold
CC(=O)N[C@@H](Cc1c[nH]cn1)C(=O)N[C@@H](CCCNC(=N)N)C(=O)N[C@@H](CCCNC(=N)N)C(=O)N[C@@H](CCCNC(=N)N)C(=O)N[C@@H](CCCNC(=N)N)C(=O)N[C@@H](CCCNC(=N)N)C(=O)N[C@@H](CCCNC(=N)N)C(=O)N[C@@H](CCCNC(=N)N)C(=O)N[C@@H](CCCNC(=N)N)C(=O)N[C@@H](Cc1c[nH]cn1)C(N)=O  bimolecular quenching rate constant (ALB; fluorescence quenching): 7.99e+12 M⁻¹ s⁻¹
Nc1nc(N)c2ncn([C@@H]3O[C@@H]4COP(=O)(O)O[C@H]5[C@@H](O)[C@H](n6cnc7c(N)nc(N)nc76)O[C@@H]5COP(=O)(O)O[C@H]4[C@H]3O)c2n1  degradation rate (gdpP residues 84-659; substrate, HPLC; 100 µM, 37 °C, upper limit if undegraded 24 h, together with: enzyme 1 µM): ≤ 0.001 mol/min/mol enzyme
CC1=C(C)[C@H](Oc2c(F)cc3c(C)cc(=O)oc3c2F)OC1=O  K1/2 (RMS3; enzyme activity, substrate, DiFMU release; pre-steady state): 1.56 µM
CCCCCCc1ccc(Oc2ccccc2C#N)c(O)c1  dissociation rate constant (Enoyl-[acyl-carrier-protein] reductase [NADPH] FabI (Staphylococcus aureus, UniProt Q6GI75, K41N/R40Q/S44L)): 0.08 ± 0.01 h⁻¹
CC1=C[C@H](O/C=C2/C(=O)O[C@@H]3c4ccccc4C[C@H]23)OC1=O (racemic)  melting temperature decrease (RMS3; differential scanning fluorimetry; concentration not given): 8 °C
O=C(Nc1ccc(-c2nc3ncccc3o2)cc1)c1ccccc1Br  IC50 ratio (Nucleoside transporter 1 (Plasmodium vivax, UniProt A5K8B0, N329S); [3H]adenosine uptake; baseline: N329S mutant over wild type): 2.6 fold
CC(C)C[C@@H](NC(=O)[C@@H](CCCCN)NC(=O)[C@@H](C)NC(=O)[C@@H](CCCNC(=N)N)NC(=O)[C@@H](Cc1c[nH]cn1)NC(=O)[C@H](NC(=O)[C@@H](CO)NC(=O)[C@H](NC(=O)[C@@H](Cc1c[nH]c2ccccc12)NC(=O)[C@H](N)Cc1ccc(O)cc1)C(C)C)[C@H](C)O)C(=O)N1CCC[C@@H]1C(=O)N[C@H](CC(=O)O)C(N)=O  aggregate diameter (Microtubule-associated protein tau, repeat domain (MAPT, Homo sapiens, UniProt P10636, del597-597); dynamic light scattering; 100 µM, 24 h, 10 µM tau, together with: 2.5 µM heparin): 3000 to 4000 nm
O=C(NC1CCCC1=O)C1CCC1 (stereo not shown)  maximal activation (rhlR (Pseudomonas aeruginosa, UniProt P54292); reporter gene, agonist, refers to: rhlI-gfp fluorescence; PAO-JP2 reporter): 96%
O=C(Nc1cccc(-c2nn[nH]n2)c1)c1cc(-c2ccccn2)cc(C(F)(F)F)c1  Kd/Ki difference (CTX-M-27 beta-lactamase; surface plasmon resonance): 2 to 3 fold
CSCC[C@@H]1NC(=O)[C@H](Cc2c[nH]c3ccccc23)NC(=O)[C@H](CCCNC(=N)N)NC(=O)[C@H](Cc2c[nH]c3ccccc23)NC(=O)[C@H](CCCNC(=N)N)NC(=O)[C@H](C)NC(=O)[C@@H](NC(=O)[C@@H](N)C(C)C)CSCC(=NOCC(=O)NCP(=O)(Oc2ccccc2)Oc2ccccc2)CSC[C@@H](C(=O)NCC(N)=O)NC(=O)[C@@H]2CCCN2C1=O  kinact/KI (Fluorophosphonate-binding serine hydrolase F (Staphylococcus aureus, UniProt Q2FUY3); covalent inhibitor; Fluorophosphonate-binding serine hydrolase F 100 nM): 27000 ± 840 M⁻¹ s⁻¹
Nc1nc(N)c2ncn([C@@H]3O[C@@H]4COP(=O)(O)O[C@H]5[C@@H](O)[C@H](n6cnc7c(N)ncnc76)O[C@@H]5COP(=O)(O)O[C@H]4[C@H]3O)c2n1  hydrolysis rate fold decrease (gdpP residues 84-659; HPLC; concentration not given; baseline: c-di-AMP, higher = slower hydrolysis): 2.2
Oc1ccc(O)c2ccccc12  FRET efficiency (Serine/threonine-protein kinase PAK 1, PBD (PAK1, Homo sapiens, UniProt Q13153); HeLa; 20 µM, 1.5 h): decreased
CCC(NC(=O)C(CC(C)C)NC(=O)NCc1ccccc1)C(=O)C(=O)NCc1cc(OC)cc(OC)c1 (stereo not shown)  ED50 (Calpain-2 catalytic subunit (Capn2, Mus musculus, UniProt O08529); brain enzyme activity; mouse, controlled cortical impact TBI, brain; intraperitoneal, 24 h after TBI): 0.11 mg/kg
Cc1cc(S(=O)(=O)Nc2ncccn2)c(F)cc1N(C)C1CCN([C@H](C)c2ccccc2)CC1  kon (SCN8A (Homo sapiens, UniProt Q9UQD0); ion current, inhibitor, patch clamp; held at V0.5): 44500 M⁻¹ s⁻¹
CC(C)P(=[Se])(NP(=[Se])(C(C)C)C(C)C)C(C)C  ΔS (Alpha-amylase (Bacillus subtilis, UniProt P00691); binding, Van't Hoff analysis; pH 6.8, 298–310 K): 0.818 kJ/mol/K
NC(=NN=Cc1cccs1)[S][Ru+]([Cl])([P](c1ccccc1)(c1ccccc1)c1ccccc1)[P](c1ccccc1)(c1ccccc1)c1ccccc1.[Cl-]  quenching rate constant (ALB; fluorescence quenching; together with: ibuprofen, site II marker): 1.14e+11 M⁻¹ s⁻¹
CN1CCN(C(=O)N[C@@H](Cc2ccccc2)C(=O)N[C@H](/C=C/S(=O)(=O)c2ccccc2)CCc2ccccc2)CC1  kinact (Procathepsin L (CTSL, Homo sapiens, UniProt P07711); inactivator; pH 5.5, 25 °C): 0.013 ± 0.002 s⁻¹
CC(=O)N[C@@H](Cc1c[nH]c2ccccc12)C(=O)N[C@@H](CCC(=O)O)C(=O)N[C@@H](Cc1c[nH]cn1)C(=O)N[C@@H](CC(=O)O)C(=O)Nc1ccc2c(C)cc(=O)oc2c1  Vmax (Caspase-8 (CASP8, Homo sapiens, UniProt Q14790); substrate cleavage, substrate, fluorogenic AMC release; enzyme 0.25 activity units/µL): 280 ± 9.36 RFU/min
COc1cc(COc2ccc3c(c2)CN(C(=O)[C@H](CCC(=O)O)NC(=O)[C@H](CC(=O)O)NC(=O)[C@H](CC(=O)O)NC(=O)[C@H](CCC(=O)O)NC(=O)[C@@H](CCCNC(=N)N)NC(=O)[C@@H](CCCNC(=N)N)NC(=O)[C@@H](CCCNC(=N)N)NC(=O)[C@H](C)N(C)C(=O)[C@H](Cc2ccccc2)NC(=O)[C@@H](NC(=O)[C@H](Cc2ccccc2)NC(=O)[C@H](C)NC(=O)[C@H](CCCNC(=N)N)N(C)C(=O)[C@@H]2CCCN2C(=O)[C@H](CCCNC(=N)N)NC(=O)CNC(=O)c2ccc4c(c2)C2(OC4=O)c4ccc(O)cc4Oc4cc(O)ccc42)[C@@H](C)OCc2cc(OC)c(OC)cc2[N+](=O)[O-])[C@H](C(=O)N[C@@H](CCC(=O)O)C(=O)N[C@@H](CCC(=O)O)C(=O)N[C@H](C(N)=O)C(C)C)C3)c([N+](=O)[O-])cc1OC  phosphorylation (EGFR (Homo sapiens, UniProt P00533); reporter phosphorylation, substrate; concentration not given, 60 min, without photoactivation): 0%
O[C@@H]1[C@@H](O)[C@H](O[C@@H]2OC[C@@H](O)[C@H](O)[C@H]2O)C[C@H]2N[C@@H]12  kinact (Exo-1,4-beta-xylosidase xlnD (xlnD, Emericella nidulans, UniProt Q5BAS1); covalent inhibitor; Aspergillus nidulans; pH 4.5, ambient, together with: 4MU-β-D-xyloside): 0.00433 s⁻¹
CC(C)[C@H](NC(=O)COCC(=O)NCCCOCCOCCOCCCNC(=O)CCCC[C@@H]1SC[C@@H]2NC(=O)N[C@@H]21)C(=O)NC(c1ccc(C(=N)N)cc1)P(=O)(Oc1ccccc1)Oc1ccccc1 (stereo partly shown)  kinact/KI (ST14 (Homo sapiens, UniProt Q9Y5Y6); enzyme activity, inhibitor): 60 M⁻¹ s⁻¹
O=C(CSc1nnc(-c2cccnc2)n1C1CC1)N1CCc2cc(Br)ccc21  efficacy (Orco (Drosophila melanogaster, UniProt Q9VNB5); calcium mobilization, agonist; HEK293 expressing Orco; baseline: VUAA1 maximum): 98%
CCN(Cc1ccccc1)C(=O)CCc1nc(CN2CCN(C(=O)Cc3ccc(OC)c(OC)c3)CC2)no1  V1/2 of activation (Sodium channel protein type 11 subunit alpha (Scn11a, Rattus norvegicus, UniProt O88457); whole-cell patch clamp; rat DRG neurons; 1 µM): -39.5 ± 1.26 mV
CC(C)C[C@H](NC(=O)CNC(=O)[C@H](CCC(N)=O)NC(=O)CNC(=O)CNC(=O)CNC(=O)CNC(=O)CNC(=O)CNC(=O)CNC(=O)CNC(=O)CNC(=O)CNC(=O)[C@H](CO)NC(=O)[C@H](C)NC(=O)[C@H](CC(C)C)NC(=O)[C@H](CC(=O)O)NC(=O)[C@H](CC(C)C)NC(=O)[C@H](C)NC(=O)[C@H](CC(=O)O)NC(=O)[C@H](C)NC(=O)[C@H](CC(C)C)NC(=O)CNC(=O)[C@H](CCC(N)=O)NC(=O)COCCNC(=S)Nc1ccc2c(c1)C(=O)OC21c2ccc(O)cc2Oc2cc(O)ccc21)C(=O)N[C@@H](C)C(=O)N[C@@H](CC(=O)O)C(=O)N[C@@H](C)C(=O)N[C@@H](CC(C)C)C(=O)N[C@@H](CC(=O)O)C(=O)N[C@@H](CC(C)C)C(=O)N[C@@H](C)C(=O)N[C@@H](CO)C(N)=O  affinity increase (14-3-3-like protein C (Nicotiana tabacum, UniProt P93343); bivalent over monovalent peptide, fluorescence polarization; together with: fluorescein-labelled ExoS peptide; baseline: monovalent peptide): 20 fold
Oc1ccc2c(c1)[O][Pt-2]1([Cl])[N+](=C2)Cc2cccc[n+]21 (stereo not shown)  binding free energy (ALB; binding to BSA): -39.9 kJ/mol
CC(=O)NC(Cc1ccc(Br)c(Cl)c1)C(=O)N[C@@H](C)C(=O)N1CCC[C@H]1C(=O)N1CCC[C@H]1C(=O)N[C@@H](CCC(=O)O)C(=O)N[C@@H](Cc1c[nH]cn1)C(=O)N[C@@H](CO)C(=O)N[C@H](C(=O)N[C@@H](C)C(N)=O)[C@@H](C)OP(=O)(O)O (stereo partly shown)  inhibition (PLK3 (Homo sapiens, UniProt Q9H4B4); enzyme activity, inhibitor; 10 µM): 2.27%
C[C@]12CC[C@H](OC(=O)CN(CCN(CCN(CC(=O)O)CC(=O)O)CC(=O)O)CC(=O)O)C[C@H]1CC[C@@H]1[C@@H]2CC[C@]2(C)[C@@H](C3=CC(=O)OC3)CC[C@]12O  remaining activity (Na+/K+-ATPase α1-3, porcine cortex; enzyme activity, inhibitor, malachite green phosphate release; 0.1 µM, 30 min): < 50%
O=C(O)COc1ccc(Cl)cc1  open channel affinity increase (Chloride channel protein (Torpedo marmorata, UniProt P21564, C212S); chloride current, inhibitor, inside-out patch clamp; 5 mM, low extracellular chloride, unit not given; baseline: 100 mM extracellular chloride): 3 to 4
C=CCN1CCc2cccc3c2[C@H]1Cc1ccc(O)c(O)c1-3  maximal inhibition (Carbamate kinase (Giardia intestinalis, UniProt A8BB85); enzyme activity, inhibitor, luminescence, ATP detection; Giardia lamblia): 89%
CC1CN1c1cc(O)c2nc(N)sc2c1 (stereo not shown)  thermal shift (Histone-lysine N-methyltransferase, H3 lysine-36 specific, SET domain (NSD1, Homo sapiens, UniProt Q96L73); HiBiT CETSA; HEK293T; 5 µM, 24 h, SET domain; baseline: DMSO): ~4 °C
C[n+]1ccc(C(=O)NC2CCC3(O)C4Cc5ccc(O)c6c5C3(CC[N+]4(C)CC3CC3)C2O6)cc1 (stereo not shown)  Emax (Oprk1 (Mus musculus, UniProt P33534); G protein activation, agonist; baseline: 3 µM U50488H): 37.7 ± 1.58%
O=C(O)c1ccc(NC(=O)c2cccc(CC3CCCCC3)n2)c(Cc2ccccc2)c1  IC50 ratio (Capsid scaffolding protein, protease domain (Human herpesvirus 8 type P, UniProt Q2HRB6, R82Q); enzyme activity, inhibitor; pH 8; baseline: mutant over wild type): 3 to 4 fold

Repeated from above:
O[C@@H]1[C@@H](O)[C@H](O[C@@H]2OC[C@@H](O)[C@H](O)[C@H]2O)C[C@H]2N[C@@H]12  kinact (Exo-1,4-beta-xylosidase xlnD (xlnD, Emericella nidulans, UniProt Q5BAS1); covalent inhibitor; Aspergillus nidulans; pH 4.5, ambient, together with: 4MU-β-D-xyloside): 0.00433 s⁻¹
CC(=O)N[C@@H](Cc1c[nH]c2ccccc12)C(=O)N[C@@H](CCC(=O)O)C(=O)N[C@@H](Cc1c[nH]cn1)C(=O)N[C@@H](CC(=O)O)C(=O)Nc1ccc2c(C)cc(=O)oc2c1  Vmax (Caspase-8 (CASP8, Homo sapiens, UniProt Q14790); substrate cleavage, substrate, fluorogenic AMC release; enzyme 0.25 activity units/µL): 280 ± 9.36 RFU/min
